Results collected from several papers.
Values joined by “and” are separate records of one study, mostly repeats; a detail may differ.
Organism: Escherichia coli

CC(C)[C@H](NC(=O)[C@H](CCCNC(=N)N)NC(=O)[C@H](CCCNC(=N)N)NC(=O)[C@@H](NC(=O)[C@H](C)NC(=O)[C@H](CC(N)=O)NC(=O)[C@H](CCCNC(=N)N)NC(=O)[C@@H](NC(=O)[C@H](CCCNC(=N)N)NC(=O)[C@H](CCCNC(=N)N)NC(=O)[C@@H](NC(=O)[C@@H](NC(=O)[C@H](CCCNC(=N)N)NC(=O)[C@H](CCCNC(=N)N)NC(=O)[C@H](Cc1c[nH]c2ccccc12)NC(=O)[C@H](Cc1c[nH]c2ccccc12)NC(=O)CN)[C@@H](C)O)C(C)C)C(C)C)C(C)C)C(=O)O
MIC (ATCC 25922; 18 h, 37 °C): 16 µg/mL

Cc1ccc(C2OC(c3ccc(C)cc3)C(C)C(=NOCc3cn(-c4ccccc4)nn3)C2C)cc1 (centres unmarked)
MIC (microbial growth, broth dilution; MTCC443; 24 h): 12.5 µg/mL

NCCCC[C@@H]1NC(=O)[C@@H](Cc2c[nH]c3ccccc23)NC(=O)[C@H](Cc2c[nH]c3ccccc23)NC(=O)[C@@H](N)CSCc2ccc(cc2)CSC[C@@H](C(N)=O)NC(=O)[C@@H](Cc2c[nH]c3ccccc23)NC(=O)[C@H](Cc2c[nH]c3ccccc23)NC(=O)[C@@H](Cc2c[nH]c3ccccc23)NC(=O)[C@H](CCCCN)NC(=O)[C@@H](CCCCN)NC(=O)[C@H](CCCCN)NC(=O)[C@@H](CCCCN)NC1=O
MIC (W3110): 64 µg/mL

CC(C)C[C@H](NC(=O)CN)C(=O)N[C@@H](CC(C)C)C(=O)N[C@@H](CCCCN)C(=O)N[C@@H](CC(C)C)C(=O)N[C@@H](CC(C)C)C(=O)N[C@@H](CCCCN)C(=O)N[C@@H](CCCCN)C(=O)N[C@@H](CC(C)C)C(=O)N[C@@H](CC(C)C)C(=O)N[C@@H](CCCCN)C(=O)N[C@@H](CC(C)C)C(=O)N[C@@H](CC(C)C)C(=O)N[C@@H](CCCCN)C(N)=O
MIC (ATCC 25922, CAMHB; 18 h, 37 °C): > 19 µM

CCCCCCCCCCCCCCCCCCCC(=O)N[C@@H](CCCCN)C(=O)N[C@@H](CCCCN)C(=O)N[C@@H](CCCCN)C(=O)N[C@@H](CCCCN)C(=O)N[C@@H](CCCCN)C(N)=O
MIC (broth microdilution; K12; 16-24 h, 37 °C, prepared at pH 7): 16 µg/mL

N=C(N)NCCC[C@H](NC(=O)[C@H](Cc1c[nH]c2ccccc12)NC(=O)[C@H](CCC(N)=O)NC(=O)[C@H](Cc1c[nH]c2ccccc12)NC(=O)[C@H](CCCNC(=N)N)NC(=O)[C@H](CCCNC(=N)N)NC(=O)CCCCCNC(=O)/C=C/c1ccc(O)c(O)c1)C(N)=O
MIC (broth microdilution; ATCC 25922; 24 h, 37 °C): 76 µM and 79 µM

CC1(C)OC2OC(C(CCO)NCCCNC(CCO)C3OC4OC(C)(C)OC4C3OCc3ccccc3)C(OCc3ccccc3)C2O1 (centres unmarked)
MIC (microbial growth, broth dilution; 20 h): 54 µg/mL

CC[C@@H](C)[C@H]1NC(=O)[C@H]([C@@H](C)CC)NC(=O)[C@@H](CCCN)NC(=O)[C@@H](NC(=O)[C@@H](NC(=O)[C@@H](CCC(=O)O)NC(=O)[C@H](CC(C)C)NC(=O)[C@@H]2CSC([C@@H](N)[C@@H](C)CC)=N2)[C@@H](C)CC)CCCCNC(=O)[C@H](CC(N)=O)NC(=O)[C@@H](CC(=O)O)NC(=O)[C@H](Cc2c[nH]cn2)NC1=O
MIC (broth microdilution; ATCC 25922, LB medium; 18 h, 37 °C, together with: ZnSO4 0.3 mM): > 64 µg/mL

C/C(=N/NC(=N)N)c1nnn(-c2ccc(C#Cc3ccsc3)cc2)c1C
MIC (broth microdilution; JW55031 tolC mutant): 32 µg/mL

Cc1cc(N)c2cc(NC(=O)c3ccc4cc(C(=O)N5CCN(C)CC5)ccc4c3)ccc2n1
MIC (BW25113 wild type): > 200 µM

CCCO[C@H]1[C@H](O)[C@@H](N)[C@@H](O[C@H]2[C@H](O[C@@H]3O[C@H](CO)[C@@H](O[C@H]4O[C@@H](CN)[C@@H](O)[C@H](O)[C@H]4N)[C@H]3O)[C@@H](O)[C@H](N)C[C@@H]2N)O[C@@H]1CO
MIC (broth microdilution; clinical isolate AG 001): 32 µg/mL

NCC1OC(OC2C(N)CC(N)C(OC3OC(CSc4ccccc4)C(O)C(N)C3O)C2O)C(N)CC1O (centres unmarked)
MIC (BL21(DE3) pET22b): 37.5 µg/mL

Cc1cc(N)c2cc(NC(=O)c3ccc4c(-c5cccc(O)c5)cccc4c3)ccc2n1
MIC (hyperporinated wild type): > 200 µM

CCCCCCCCCCCCCC(=O)N[C@@H](CCCCN)C(=O)N[C@@H](CCCCN)C(=O)N[C@@H](CCCCN)C(=O)N[C@@H](CCCCN)C(N)=O
MIC (broth microdilution; K12, water pH 7; 18 h, 37 °C): 32 µg/mL

CNc1nc(SC)nc2ccccc12
MIC (broth microdilution; 3): > 64 µM

CC[C@H](C)[C@H](NC(=O)[C@H](CCCNC(=N)N)NC(=O)[C@@H]1CCCN1C(=O)[C@@H](NC(=O)[C@H](CCCNC(=N)N)NC(=O)[C@H](Cc1ccccc1)NC(=O)[C@H](CC(=O)O)NC(=O)[C@@H]1CCCN1C(=O)[C@@H]1CCCN1C(=O)[C@H](CO)NC(=O)[C@H](Cc1c[nH]c2ccccc12)NC(=O)[C@@H]1CCCN1C(=O)[C@@H]1CCCN1C(=O)[C@H](CC(C)C)NC(=O)[C@H](Cc1c[nH]c2ccccc12)NC(=O)[C@@H]1CCCN1C(=O)CNC(=O)[C@@H]1CCCN1C(=O)[C@H](Cc1c[nH]c2ccccc12)NC(=O)[C@H](CC(N)=O)NC(=O)[C@@H]1CCCN1C(=O)[C@@H]1CCCN1C(=O)[C@H](Cc1c[nH]c2ccccc12)NC(=O)[C@H](Cc1ccccc1)NC(=O)[C@@H]1CCCN1C(=O)[C@@H](NC(=O)[C@H](CCCNC(=N)N)NC(=O)[C@@H](N)CCCNC(=N)N)[C@@H](C)CC)[C@@H](C)CC)C(=O)N[C@@H](CC(C)C)C(=O)N[C@@H](CCCNC(=N)N)C(=O)N[C@@H](CCCCN)C(=O)N[C@@H](CCCNC(=N)N)C(=O)O
MIC (broth microdilution; BW25113 wild type, Mueller-Hinton broth; overnight, 37 °C): 7 µM

CC(C)C[C@@H]1NC(=O)[C@@H](CC(C)C)NC(=O)[C@H](CCN)NC(=O)[C@@H](NC(=O)[C@H](CCN)NC(=O)[C@@H](N)[C@@H](C)O)CCNC(=O)[C@H]([C@@H](C)O)NC(=O)[C@H](CCN)NC(=O)[C@H](CCN)NC1=O
MIC (broth microdilution; NDM-1, CAMHB with polysorbate-80; 16 h): > 64 µg/mL

CC[C@H](C)[C@H](NC(=O)[C@H](CCCCN)NC(=O)[C@H](CCCCN)NC(=O)[C@H](Cc1c[nH]c2ccccc12)NC(=O)[C@H](CC(N)=O)NC(=O)[C@@H](N)C(C)C)C(=O)N[C@@H](CC(C)C)C(=O)NCC(=O)N[C@@H](CCCCN)C(=O)N[C@H](C(=O)N[C@H](C(=O)N[C@@H](CCCCN)C(=O)N[C@H](C(=O)N[C@H](C(=O)N[C@@H](CCCCN)C(N)=O)C(C)C)C(C)C)[C@@H](C)CC)[C@@H](C)CC
MIC (ATCC 8937, RPMI medium; 24 h, 37 °C): 1.9 to 3.7 µM

CCCCCCCCCCCCCCCCCCCCCCSCC1OC(OC2C(N)CC(N)C(OC3OC(CN)C(O)CC3N)C2O)C(O)C(N)C1O (centres unmarked)
MIC (BL21(DE3)): > 150 µg/mL

C[C@@](O)(C(F)F)[C@H](NC(=O)c1ccc(C#CC#CC2CC2)cc1)C(=O)NO
MIC (NDM-1 ATCC BAA-2471): 0.01 µg/mL

CC[C@H](C)[C@H](NC(=O)[C@H](CCCCN)NC(=O)[C@H](CC(N)=O)NC(=O)[C@H](Cc1c[nH]c2ccccc12)NC(=O)[C@H](Cc1ccccc1)NC(=O)[C@H](CCCCN)NC(=O)[C@H](CCCCNC(=N)N)NC(=O)[C@H](CC(C)C)NC(=O)[C@H](Cc1c[nH]c2ccccc12)NC(=O)[C@H](CCCCN)NC(=O)[C@H](CCCCNC(=N)N)NC(=O)[C@H](CC(C)C)NC(=O)CNC(C)=O)C(=O)N[C@@H](CCCCN)C(=O)N[C@@H](CCCCNC(=N)N)C(N)=O
MIC (broth microdilution; ATCC 25922): 3.12 µM

CCCCCCCCCCCC[S+]([O-])CC1OC(OC2C(N)CC(N)C(OC3OC(CN)C(O)CC3N)C2O)C(O)C(N)C1O (mixture of isomers)
MIC (BL21(DE3)): 75 µg/mL

CC[C@@H](C)[C@@H](NC(=O)[C@@H](CCCCN)NC(=O)[C@H]1CCCN1C(=O)[C@H](NC(=O)[C@@H](CC(C)C)NC(=O)[C@@H](CCCCN)NC(=O)[C@@H](CC(C)C)NC(=O)[C@H](NC(=O)[C@@H](CO)NC(=O)CNC(=O)[C@@H](Cc1ccccc1)NC(=O)[C@H](N)Cc1ccccc1)C(C)C)[C@H](C)CC)C(=O)N[C@H](CC(C)C)C(N)=O
MIC (broth microdilution; K12): 25 µM

CC[C@H](C)[C@H](NC(=O)[C@@H](Cc1ccccc1)NC)C(=O)N[C@@H](CO)C(=O)N[C@H](CCCNC(=N)N)C(=O)N[C@@H](C(=O)N[C@H](C(=O)N[C@@H](CO)C(=O)N[C@H]1C(=O)N[C@@H](C)C(=O)N[C@@H](C2CCCCC2)C(=O)N[C@@H]([C@@H](C)CC)C(=O)O[C@H]1C)[C@@H](C)CC)[C@@H](C)CC
MIC (broth microdilution; ATCC 10798, Mueller-Hinton broth; 16 h, 37 °C): > 8 µg/mL

N=C(N)NCCC[C@H](NC(=O)[C@H](Cc1c[nH]c2ccccc12)NC(=O)[C@H](CCC(N)=O)NC(=O)[C@H](Cc1c[nH]c2ccccc12)NC(=O)[C@H](CCCNC(=N)N)NC(=O)[C@H](Cc1c[nH]c2ccccc12)NC(=O)[C@H](CCC(N)=O)NC(=O)[C@H](Cc1c[nH]c2ccccc12)NC(=O)[C@@H](N)CCCNC(=N)N)C(=O)NCCCC[C@H](NC(=O)[C@H](CCCNC(=N)N)NC(=O)[C@H](Cc1c[nH]c2ccccc12)NC(=O)[C@H](CCC(N)=O)NC(=O)[C@H](Cc1c[nH]c2ccccc12)NC(=O)[C@H](CCCNC(=N)N)NC(=O)[C@H](Cc1c[nH]c2ccccc12)NC(=O)[C@H](CCC(N)=O)NC(=O)[C@H](Cc1c[nH]c2ccccc12)NC(=O)[C@@H](N)CCCNC(=N)N)C(=O)NCCCCCC(N)=O
MIC (broth microdilution; ATCC 25922; 24 h, 37 °C): 16 µM

CC[C@H](C)[C@H](NC(=O)[C@H](CO)NC(=O)[C@H](CO)NC(=O)[C@H](Cc1ccccc1)NC(=O)CN)C(=O)N[C@@H](Cc1ccccc1)C(=O)N[C@@H](CCCNC(=N)N)C(=O)NCC(=O)N[C@H](C(=O)N[C@@H](C)C(=O)N[C@@H](CCCCN)C(=O)N[C@@H](Cc1ccccc1)C(=O)N[C@@H](C)C(=O)N[C@@H](CO)C(=O)N[C@@H](CCCCN)C(=O)NCC(=O)N[C@@H](CC(C)C)C(=O)NCC(=O)N[C@@H](CCCCN)C(N)=O)C(C)C
MIC (ATCC 8739; pretreated trypsin 1 mg/mL): > 128 µM
